Assay results gathered from unrelated publications.
Parts stem from different laboratories: compare values within a part only. Positions count from the first letter of the parent shown.

Set 1
Target: CCNA2, cyclin fold, Cln2 fusion (human)
Technique: yeast growth competition, sequencing
Medium: yeast
Notes: strong parent motif
Relative to: not given
Reading: higher = stronger binding
Endpoint: normalised enrichment score
Parent: PKN2 docking peptide (human); VSAVQKLDFSDTM; partner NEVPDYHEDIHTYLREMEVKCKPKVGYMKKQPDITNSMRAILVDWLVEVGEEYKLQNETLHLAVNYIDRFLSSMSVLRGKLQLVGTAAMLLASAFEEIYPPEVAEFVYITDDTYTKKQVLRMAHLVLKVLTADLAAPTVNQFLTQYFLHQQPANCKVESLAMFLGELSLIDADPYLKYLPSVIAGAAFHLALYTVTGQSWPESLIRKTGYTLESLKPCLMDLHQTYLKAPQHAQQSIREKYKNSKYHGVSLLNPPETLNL
VSAVQKLDFSNTM [D11N]: 2.55
VSAVQKLDWSDTM [F9W]: -0.276
VSAVQKLDFSDTK [M13K]: 2.03
VSAVQKFDFSDTM [L7F]: 0.0277
VSAVQKLDFSDSM [T12S]: 2.74
VSAVQKLDGSDTM [F9G]: -0.0244
VSATQKLDFSDTM [V4T]: -0.497
RSAVQKLDFSDTM [V1R]: 3.35
VSAVQKLDFPDTM [S10P]: 1.18
VSAVQKLDFSDTY [M13Y]: 2.42
VSARQKLDFSDTM [V4R]: 4.34
VSAVQKLYFSDTM [D8Y]: 1.48
VSANQKLDFSDTM [V4N]: 0.512
VSAVQYLDFSDTM [K6Y]: 0.118
VSAVQKLDCSDTM [F9C]: -0.4
VSAVQKLTFSDTM [D8T]: 1.31
VSAGQKLDFSDTM [V4G]: 0.158
VAAVQKLDFSDTM [S2A]: 2.51
ISAVQKLDFSDTM [V1I]: 1.4
VSAVQKLRFSDTM [D8R]: 1.07
VWAVQKLDFSDTM [S2W]: 0.803
VSAVQKLDISDTM [F9I]: -0.0882

Set 2
Target: RING finger protein unkempt homolog, zinc fingers 1-6, GST-SBP tag (UNK, Homo sapiens, UniProt Q9C0B0, residues 30-357)
Chain of UniProt Q9C0B0 (30-357, looked up): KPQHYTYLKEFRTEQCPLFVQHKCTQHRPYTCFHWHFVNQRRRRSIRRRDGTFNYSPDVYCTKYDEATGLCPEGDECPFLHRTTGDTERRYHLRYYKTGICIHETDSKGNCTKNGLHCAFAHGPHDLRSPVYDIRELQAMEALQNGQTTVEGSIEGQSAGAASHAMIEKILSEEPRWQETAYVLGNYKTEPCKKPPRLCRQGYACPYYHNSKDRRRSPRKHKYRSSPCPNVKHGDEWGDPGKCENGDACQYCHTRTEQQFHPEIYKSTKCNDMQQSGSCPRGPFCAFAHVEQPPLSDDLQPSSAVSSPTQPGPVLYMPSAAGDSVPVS
Technique: RNA Bind-n-Seq
Molecule type: RNA
Medium: in vitro
Tested at: not given
Notes: RNA with constant flanks, human and mouse sites, ends assumed
Relative to: input RNA pool
Reading: higher = stronger binding
Endpoint: bound/input enrichment
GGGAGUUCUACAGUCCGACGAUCUGGUUGCUCCUUUGUCAAACUGGGAUGAAAGCAAUGGCUAUUCCUCUGUUCUUUCAGAUAGUAAUGGGAGCUUUUACUGGCUUACAUCAUUACAAUAUAUGUGAAAAACCACGUGCAAGGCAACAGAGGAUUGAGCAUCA: 0.213 ratio
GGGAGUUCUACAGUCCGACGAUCGAGAAAGGAGAGAUGCAGGUUGUCCCAGUUUUGGUGCAUCUCCUGUCUGCUAUCAGCAGUGUUAGGCUUUACAUUCCUAAAGACCUUCGGCCGGUGGACAAUAGACAGAGUGUUUUAAAACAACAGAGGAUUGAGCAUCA: 0.42 ratio
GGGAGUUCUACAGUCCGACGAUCCAUCGCAUGCCCAGGGGCCACUACCUGGCAUUAUCGCAUGCUGGGAUCAUUGGGGGAGGGUAGUUUGAAAUUCACCACUGUCCUUUGUUUUGGAGAUUCUUAUUUUUUAAUAAGUAAUCCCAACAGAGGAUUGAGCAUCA: 0.165 ratio
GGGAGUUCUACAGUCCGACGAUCCAAGAAGGUUGCUGCUUGGUUCGUUCCAAAGACGAAGAAGCUGACAGUGAUAAUUAUGAAGUUUUAUUCAACCUGGAAGAACUUAAAUUGGAUCAGCCUUUCAUUGAUUGCAUCAGAGUUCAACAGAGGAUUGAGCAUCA: 0.222 ratio
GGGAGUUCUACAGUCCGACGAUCUUUUAAAAACCAAAAAGCAUAAACAUUCUGGUCCUUCAGCAAUGCUUUCUCUGAAGAAAUACUUAACGGAAGGACUUCUCCAGUUCACCAUUCUGCUGAGUUUGAUUGGGGUACGGGUGGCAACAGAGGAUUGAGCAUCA: 0.252 ratio
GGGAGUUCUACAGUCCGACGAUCGAGGUUGUUAAGGACAAAGCAGGACCUCAUAAGGAAAUCUACCCCUAUGUCAUCCAGGAACUUAGACCAACUUUAAAUGAACUGGGAAUCUCCACUCCGGAGGAACUGGGCCUUGACAAACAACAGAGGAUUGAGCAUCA: 0.415 ratio
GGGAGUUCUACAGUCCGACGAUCGAUGUCAUUUCUUUUUUUUUUUUAAUAAAAAGGUUGAACUGUUUUUUUUUUUCUUUUUGGUAUUAAGUCCAUCUUGUGUUGGUACAUUGGCAGAGACAUAUGCUUUAAAAACUUAAAUAUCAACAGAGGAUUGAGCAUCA: 0.551 ratio
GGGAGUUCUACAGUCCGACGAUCGGAACCAUCCUAAUGGAGACACACAAAACUGUUGGGCAGCAGAUGCUGAGCUUCCCCCACCUCCUGCAGACAGUGCUGCACAUCAUCCAGGUAGUCAUCAGCUACUUCCUCAUGCUCAUCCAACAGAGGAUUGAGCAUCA: 0.303 ratio
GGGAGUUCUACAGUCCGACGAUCGGCUUUGCUUUACUUUUUUACCUUGAACAACUGCUUGGAGGACCAGAGAUUUUCCUAGGAUUCUUAAAAGCUUAUGUUGAGAAGUUUUCCUAUAAGAGCAUAACUACUGAUGACUGGAAGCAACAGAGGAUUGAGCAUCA: 0.235 ratio
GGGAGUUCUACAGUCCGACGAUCAAUUUAUUUGAGACUGGAUUUUAUCACUCGGAGCUAAACCCUAUGAACAUGUGCAGUGAAGAGUCAGAGAGACCAGCAAAAAGAUUGAAAAUGGGCAUUGCCGUCCCUGAAUCCUUUAUGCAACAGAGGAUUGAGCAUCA: 0.109 ratio
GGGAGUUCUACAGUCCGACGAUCUCUCAGUUAUUAAAGCUAAUUGGUUUUUUUGUUUGGAGAGUGACAUUUUAAUUGAUUUAAUUAUUGUCAAUAUUAAGUUGAGAGUUUUGUUUGGGUAUUGACAUUCUUCAUUUCAUGUUGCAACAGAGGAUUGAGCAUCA: 0.598 ratio

Set 3
Target: Sal-like protein 4, full length isoform B (SALL4, Homo sapiens, UniProt Q9UJQ4-2, residues 1-616)
Technique: universal PBM
Molecule type: double-stranded DNA, one strand shown
Medium: in vitro
Tested at: not given
Notes: 8-mer, flanks averaged, mean of replicates
Reading: higher = stronger binding
Endpoint: E-score
ACGGCAAT: 0.18
CAAGCCCA: -0.0939
GCAAAGCC: -0.311
TCTTATAA: 0.28
CGAAAACC: -0.03
TCTAAAGA: 0.0767
AAGCACAA: 0.164
ACGCGCCG: -0.321
GTTTTTCA: 0.163
GGAATGGA: -0.117
AAGGTGTA: 0.0862
GGAAAATA: 0.336
ACAGGGGA: -0.234
GAGAGAAC: -0.256
ACAATTCT: 0.166
GTATCGCA: -0.0774
AGTCCTAA: 0.0322
CTCAAAAC: 0.0643
CGTCCCCC: -0.303
CGCAGGGA: -0.181
CGGAATAG: -0.111
CACGTAGC: -0.184
GCCATCAC: -0.1
CACCGTTC: -0.0885
AAAACCTG: 0.0396

Set 4
Target: ABI1, truncated, D143A, DHFR fusion (Arabidopsis thaliana, UniProt P49597)
Technique: DHFR PCA, dose-response
Medium: yeast
Notes: Hill fit, mean, not affinity
Together with: (+)-ABA, dose series
Reading: lower = more sensitive
Endpoint: ABA EC50
Parent: PYL1, truncated, DHFR fusion (Arabidopsis thaliana, UniProt Q8VZS8); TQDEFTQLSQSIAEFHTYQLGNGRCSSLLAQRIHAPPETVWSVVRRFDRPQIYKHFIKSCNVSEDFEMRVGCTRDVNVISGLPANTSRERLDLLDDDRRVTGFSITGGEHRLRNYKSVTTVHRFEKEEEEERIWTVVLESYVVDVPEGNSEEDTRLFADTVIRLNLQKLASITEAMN
G71K: 136 µM
D153C: 73.5 µM
F15S: 69.7 µM
L93F: 5.18 µM
D144I: 150 µM
S26A: 3.2 µM
H34W: 7.84 µM
R90C: 9.19 µM
R32M: 2.6 µM
H122S: 72.5 µM
S150Q: 32.4 µM
A30L: 2.17 µM
P36W: 36.6 µM
S80E: 130 µM
D75Q: 0.669 µM
V62E: 237 µM
V62G: 137 µM
C72F: 19.7 µM
F5R: 2.82 µM
Q7S: 1.81 µM
L28G: 218 µM
T73P: 160 µM
K54R: 177 µM
H122L: 171 µM
D92Y: 172 µM

Set 5
Target: Interferon regulatory factor 5, full length, phosphomimetic (IRF5, Homo sapiens, UniProt Q13568-2, residues 1-514, S451D/S453D/S456D/S462D)
Technique: protein-binding microarray
Molecule type: double-stranded DNA, one strand shown
Medium: in vitro
Tested at: 940 nM top
Notes: 60-bp whole probe
Together with: salmon DNA 0.4 mg/ml
Relative to: random background probes
Reading: higher = stronger binding
Endpoint: fitted relative affinity
All sequences stand within: GCCTAGCAC … GTCTTGATTCGCTTGACGCTGCTG
TTAGATTTCAGTATAGATTAGTGCTAG: 0.841 z-score
AGTGAATTAGGTTTCACTTTGTGCTAG: 5.41 z-score
TTAGGTTTAGGACTGGGTTAGTGCTAG: -0.274 z-score
GACGGTTTCGTCTTTCGGGACGTGCTA: 7.15 z-score
TGTTCATTTTCAAAACTGTTGTGCTAG: 0.672 z-score
TTAGGTATCCTACTGCTTTGGTGCTAG: -0.0471 z-score
TTAGATTTCACTATCGATTAGTGCTAG: 1.45 z-score
TTAGGTATCGACTTTCCGTTAGTGCTA: 5.17 z-score
CTAGATCTCAGTATCGATTAGTGCTAG: 4.67 z-score
GACGATATCCGGTTTCGAGACGTGCTA: 2.95 z-score
CAACCTTTGTTTTTTTCTATGTGCTAG: 1.45 z-score
TTAGATTTCAGTATCTATTAGTGCTAG: 1.78 z-score
TCATTTCTTTTATTAGTACTGTGCTAG: 1.61 z-score
TTAGGTCTCCTTGTCCTTTAGTGCTAG: 0.202 z-score
TCAAGTTTCTATTTTCTACTGTGCTAG: 4.21 z-score
TCATTTTTTTTCATCATTGCGTGCTAG: 1.64 z-score
GACGATTTCTGTCTCGAGACGTGCTAG: 1.76 z-score
TTAGGACTGCTTATCTTTTAGTGCTAG: 0.0502 z-score
GACGATTTCGGGTATCAAGACGTGCTA: 0.724 z-score
TTAGTTTTCAATTTTTGCATGTGCTAG: 1.02 z-score
TTAGATATCAGTCTCGATGAGTGCTAG: 2.02 z-score
CCCAATAATCTTTTCACTTTGTGCTAG: 1.55 z-score
TTAGCACTGGGGTATCGGTTAGTGCTA: 3.1 z-score
TTAGGCCTGGACACTGGGTTAGTGCTA: -0.458 z-score
GACGAACGGGGGACTGGAGACGTGCTA: 0.94 z-score

Repeated from above (set 3):
ACGGCAAT: 0.18
CAAGCCCA: -0.0939
GCAAAGCC: -0.311
TCTTATAA: 0.28
CGAAAACC: -0.03
TCTAAAGA: 0.0767
AAGCACAA: 0.164
ACGCGCCG: -0.321
GTTTTTCA: 0.163
GGAATGGA: -0.117
AAGGTGTA: 0.0862
GGAAAATA: 0.336
ACAGGGGA: -0.234
GAGAGAAC: -0.256
ACAATTCT: 0.166
GTATCGCA: -0.0774
AGTCCTAA: 0.0322
